Measurements collected from several papers.
Lines come from different studies, so protocols differ. Numbers after ± are the reported error. Converted amounts (≈) assume the structure as drawn.

C=C(NC(=O)c1csc(-c2nc3c(cc2O)-c2nc(cs2)C(=O)NC(C(C)O)C(=O)NC(=C(C)OC)c2nc(cs2)C(=O)NC2c4nc(cs4)C(=O)NC(COC(=O)c4c5c6c(cccc6n4O)COC(=O)C(OC4CC(C)(O)C(N(C)C)C(C)O4)C2OC5)c2nc-3cs2)n1)C(N)=O (stereo not drawn) — MIC50 (Staphylococcus aureus; MRSA; 10 isolates): 0.0156 µg/mL (≈ 0.0109 µM)
N=C(S)N/N=C/c1ncc(C(F)(F)F)cc1Cl — EC50 (Mus musculus; gene silencing, high-content imaging; LDR reporter GFP cells; retest, mean of two runs): 12.6 µM
O=C(N/N=C/c1ccc2c(ccc[n+]2Cc2ccccc2)c1)N/N=C/c1ccc2c(ccc[n+]2Cc2ccccc2)c1 — ΔTm (MYC parallel G4 DNA; FRET melting; 1 µM, DNA 0.2 µM): 8.8 ± 1.1 °C
O=[N+]([O-])C(=C\Nc1ccccc1O)/C=N/c1ccccc1O — Emax (Mus musculus; gene silencing, high-content imaging; LDR reporter GFP cells; 30 h, retest run 2): 38%
COC1CN([C@H]2CC[C@H]([C@@]3(C)Oc4c(Cl)cc(C(=O)NCc5c(SC)cc(C)[nH]c5=O)c(C)c4O3)CC2)C1 — log2 fold change (RNA-seq, refers to: COL4A2; human, whole blood; dose not given, 24 h; relative to: pretreatment baseline): 2.31
CC(C)(C)NCC(SS(=O)(=O)O)c1ccccc1 (stereo not drawn) — spleen weight (Swiss Webster mice, Schistosoma mansoni-infected; 600 mg/kg single dose on day 7 post-infection, perfusion day 44 post-infection): 0.33 g
CC(C)(C)c1cc(-c2ccc3cccnc3n2)nc(-c2ccc3cccnc3n2)c1.[Cl-].[Cl-].[Ru+2].c1cnc2c(c1)ccc1cccnc12 — EC50 (A-375; resazurin; added: light 633 nm, 20 mW, 100 J/cm2): 152 ± 3 µM
CCc1nnc(NC(=O)c2cccc(C(=O)Nc3nnc(CC)s3)n2)s1 — EC50 (Mus musculus; gene silencing, high-content imaging; LDR reporter GFP cells; confirmation, mean of two runs): 7.94 µM
CC[n+]1cccc2cc(/C=N/NC(=O)c3ccc4ccc(C(=O)N/N=C/c5ccc6c(ccc[n+]6CC)c5)nc4n3)ccc21 — ΔTm (hp2 hairpin duplex DNA; FRET melting; 1 µM): 1.4 ± 0.5 °C
COc1ccc2c(C)nc(Nc3nc(O)cc(-c4ccccc4)n3)nc2c1 — Emax (Mus musculus; gene silencing, high-content imaging; LDR reporter GFP cells; 30 h, retest run 1): 55%
COC1OC(C)C(O)C(OC2OC(C)C(O)C(OC3OC(C)C(O)C(OC4OC(C)C(O)C(OC5OC(C)C(O)C(OC6OC(C)C(O)C(OC7OC(C)C(O)C(OC8OC(C)C(O)C(OC9OC(C)C(O)C(OC%10OC(C)C(O)C(OC%11OC(C)C(O)C(OS(=O)(=O)O)C%11OS(=O)(=O)O)C%10OS(=O)(=O)O)C9OS(=O)(=O)O)C8OS(=O)(=O)O)C7OS(=O)(=O)O)C6OS(=O)(=O)O)C5OS(=O)(=O)O)C4OS(=O)(=O)O)C3OS(=O)(=O)O)C2OS(=O)(=O)O)C1OS(=O)(=O)O (stereo not drawn) — prothrombin time (human plasma; 128 µg/mL): 14.6 ± 0.6 s
Cc1ccc(C(C)C)c(OCc2ccc(C(=O)N/N=C/c3cccc(O)c3O)cc2)c1 — AC50 (Mus musculus; gene silencing, high-content imaging; LDR reporter GFP cells; retest run 2): 1.26 µM
C=CC(=O)N1[C@@H](c2ccc3c(c2)OCO3)c2[nH]c3ccccc3c2C[C@H]1C(=O)N1CCN(C)CC1 — relative co-enrichment (human cyclin E1 N112C-3xFLAG:CDK2; co-IP with TMT proteomics, refers to: NPM1; concentration not given, P06748; relative to: wild type DMSO): 100%
C[n+]1cccc2cc(/C=N/NC(=O)c3cc(C(=O)N/N=C/c4ccc5c(ccc[n+]5C)c4)ncn3)ccc21 — ΔTm (MYC parallel G4 DNA; FRET melting; 1 µM, DNA 0.2 µM, added: duplex DNA competitor 10 µM): 2 ± 0.4 °C
CCC(=O)N1CCN(c2ccc(NC(=O)c3ccc([N+](=O)[O-])o3)cc2Cl)CC1 — Emax (Mus musculus; gene silencing, high-content imaging; LDR reporter GFP cells; 30 h, retest, mean of two runs): 39%
C[n+]1ccc(/C=N/NC(=O)c2cncc(C(=O)N/N=C/c3cc[n+](C)c4ccccc34)n2)c2ccccc21 — delta Tm (MYC promoter parallel G-quadruplex DNA; UV melting; 6 µM, 1 mM potassium, added: DNA 3 µM): 18.7 °C
CN1CCCNC(=O)c2cccc(c2)C(=O)NCCCN(C)CCCNc2cccc3c2C(=O)c2cccc(c2C3=O)NCCC1 — log2 fold change (SAS; RNA-seq, refers to: ZFX mRNA; 1 µM, 6 h; relative to: untreated cells): 0.505
COC1OC(C)C(O)C(OC2OC(C)C(O)C(OC3OC(C)C(O)C(OC4OC(C)C(O)C(OS(=O)(=O)O)C4OS(=O)(=O)O)C3OS(=O)(=O)O)C2OS(=O)(=O)O)C1OS(=O)(=O)O (stereo not drawn) — prothrombin time prolongation (human plasma; 128 µg/mL; relative to: control): 0.98 fold
C(=N\Nc1nc(-c2ccccn2)nc2ccccc12)/c1ccccc1 — EC50 (Mus musculus; gene silencing, high-content imaging; LDR reporter GFP cells; retest, mean of two runs): 5.01 µM
Cc1ncsc1-c1ccc(C(C)NC(=O)C2CC(O)CN2C(=O)C(NC(=O)CCCCCCCCCCN2CCCC(Nc3ncc(Cl)c(Nc4ccccc4S(=O)(=O)C(C)C)n3)C2)C(C)(C)C)cc1 (stereo not drawn) — log2 fold change (22Rv1; RNA-seq, refers to: RHBDF2 mRNA; concentration not given; relative to: DMSO): -2.3
C[n+]1ccc(/C=N/NC(=O)c2cccc(C(=O)N/N=C/c3cc[n+](C)cc3)n2)cc1 — ΔTm (MYC parallel G4 DNA; FRET melting; 1 µM, DNA 0.2 µM, added: duplex DNA competitor 10 µM): 2.8 ± 0.4 °C
CNS(=O)(=O)Nc1nccc(Cc2c(C)c3ccc(Oc4ncccc4F)cc3oc2=O)c1F — IC50 (SBC-5; cell viability; 7 days): > 1 µM
Nc1ncc(-c2cc(-c3cnn(CC(F)(F)F)c3)ncc2F)nc1C(=O)NC1CNCC(F)C1 (stereo not drawn) — remaining binding (MST1R; KINOMEscan; 1 µM; relative to: DMSO control): 100%
C[n+]1ccc(/C=N/NC(=O)c2ccc3ccc(C(=O)N/N=C/c4cc[n+](C)c5ccccc45)nc3n2)c2ccccc21 — ΔTm (MYC parallel G4 DNA; FRET melting; 1 µM, DNA 0.2 µM, added: duplex DNA competitor 10 µM): 15.3 ± 0.3 °C
C=CC(=O)Nc1cccc(Cn2ncc3cnc(Nc4cnn(CCOC)c4)nc32)c1 — binding (human ICK; KINOMEscan; 100 nM; relative to: control): 46%
COC1OC(C)C(OS(=O)(=O)O)C(OC2OC(C)C(OS(=O)(=O)O)C(OC3OC(C)C(OS(=O)(=O)O)C(OC4OC(C)C(OS(=O)(=O)O)C(OC5OC(C)C(OS(=O)(=O)O)C(OC6OC(C)C(OS(=O)(=O)O)C(OC7OC(C)C(OS(=O)(=O)O)C(OC8OC(C)C(OS(=O)(=O)O)C(OC9OC(C)C(OS(=O)(=O)O)C(OC%10OC(C)C(OS(=O)(=O)O)C(OS(=O)(=O)O)C%10O)C9O)C8O)C7O)C6O)C5O)C4O)C3O)C2O)C1O (stereo not drawn) — prothrombin time (human plasma; 128 µg/mL): 14.7 ± 0.6 s
C[n+]1cc(/C=N/NC(=O)c2cncc(C(=O)N/N=C/c3cc4ccccc4[n+](C)c3)n2)cc2ccccc21 — ΔTm (hp2 hairpin duplex DNA; FRET melting; 1 µM): 0.6 ± 0.1 °C
Oc1c(/N=N/c2ccccn2)ccc2ccccc12 — Emax (Mus musculus; gene silencing, high-content imaging; LDR reporter GFP cells; 30 h, confirmation, mean of two runs): 75%
O=C(N/N=C/c1cc[n+](CC2CC2)c2ccccc12)c1cccc(C(=O)N/N=C/c2cc[n+](CC3CC3)c3ccccc23)c1 — ΔTm (hp2 hairpin duplex DNA; FRET melting; 1 µM): 0.7 °C
COC1OC(C)C(OS(=O)(=O)O)C(OC2OC(C)C(OS(=O)(=O)O)C(OS(=O)(=O)O)C2O)C1O (stereo not drawn) — prothrombin time prolongation (human plasma; 128 µg/mL; relative to: control): 0.95 fold
